Measurements gathered from unrelated publications.
Compare with care: the assays were run in different laboratories. Numbers after ± are the reported error.

COc1ccc(-c2oc3c(OC)c(OC)cc(O)c3c(=O)c2OC)cc1OC  tissue to peel content ratio (C57BL/6 mouse, male, colon; oral, 1% w/w in diet, 6 weeks, orange peel extract diet; relative to: content in orange peel): 2.13%
CC(C)[C@H](NC(=O)[C@@H]1CCCN1C(=O)[C@H](CCCNC(=N)N)NC(=O)[C@H](CS)NC(=O)[C@H](Cc1c[nH]c2ccccc12)NC(=O)[C@H](CCCNC(=N)N)NC(=O)[C@@H](Cc1ccccc1)NC(=O)[C@H](Cc1c[nH]cn1)NC(=O)[C@H](CCC(=O)O)NC(=O)[C@H](CS)NC(=O)[C@H](CS)NC(=O)[C@H](CCCCN)NC(=O)[C@@H]1CC(=O)N[C@@H](CCCNC(=N)N)C(=O)N[C@@H](C(C)C)C(=O)N[C@@H](CC(=O)O)C(=O)N[C@H](Cc2ccc(O)cc2)C(=O)N1)C(N)=O [technetium-99m labelled]  tissue uptake (C57 mouse, female, B16/F1 melanoma, lung; intravenous, 2 h, with: NDP-MSH 10 µg co-injected): 0.83 ± 0.24 %ID/g
CCCC[C@@H]1NC(=O)[C@@H](NC(=O)[C@H](CCC(=O)O)NC(=O)CNC(=O)CN2CCN(CC(=O)O)CCN(CC(=O)O)CCN(CC(=O)O)CC2)CCCCNC(=O)C[C@@H](C(N)=O)NC(=O)[C@H](C(C)C)NC(=O)[C@@H]2CCCN2C(=O)[C@H](CCCNC(=N)N)NC(=O)CNC(=O)[C@H](Cc2c[nH]c3ccccc23)NC(=O)[C@H](CCCNC(=N)N)NC(=O)[C@@H](Cc2ccccc2)NC(=O)[C@H](Cc2c[nH]cn2)NC(=O)[C@H](CCC(=O)O)NC1=O [indium-111 labelled]  tissue uptake ratio (C57 mouse, B16/F10 lung metastasis; intravenous, 0.037 MBq, 24 h; relative to: lung over kidney): 0.02
COc1ccc(-c2cc(=O)c3c(O)c(OC)c(OC)c(OC)c3o2)cc1OC  tissue to peel content ratio (C57BL/6 mouse, male, kidney; oral, 1% w/w in diet, 6 weeks, orange peel extract diet; relative to: content in orange peel): 0.238%
CC(=O)N[C@H](CCNC(=O)c1cc(NC(=O)c2cc(NC(=O)c3cc(NC(=O)c4nccn4C)cn3C)cn2C)cn1C)C(=O)Nc1cn(C)c(C(=O)Nc2cc(C(=O)Nc3cc(C(=O)Nc4cc(C(=O)NCCCN(C)CCCN[14C](=O)c5cccc([14C](=O)O)c5)n(C)c4)n(C)c3)n(C)c2)n1  tissue concentration (radiolabel counting; NSG male mouse, LNCaP xenograft, kidney; intraperitoneal, 20 nmol per animal, 24 h): 0.25 mg/kg
COc1ccc(-c2cc(=O)c3c(OC)c(OC)c(OC)cc3o2)cc1OC  tissue to peel content ratio (C57BL/6 mouse, male, feces; oral, 1% w/w in diet, 6 weeks, orange peel extract diet; relative to: content in orange peel): 48.7%
CC(C)[C@H](NC(=O)[C@@H]1CCCN1C(=O)[C@H](CCCNC(=N)N)NC(=O)[C@H](CS)NC(=O)[C@H](Cc1c[nH]c2ccccc12)NC(=O)[C@H](CCCNC(=N)N)NC(=O)[C@@H](Cc1ccccc1)NC(=O)[C@H](Cc1c[nH]cn1)NC(=O)[C@H](CCC(=O)O)NC(=O)[C@H](CS)NC(=O)[C@H](CS)NC(=O)[C@H](CCCCN)NC(=O)[C@@H]1CC(=O)N[C@@H](CCCNC(=N)N)C(=O)N[C@@H]([C@@H](C)O)C(=O)N[C@@H](CC(=O)O)C(=O)N[C@H](Cc2ccc(O)cc2)C(=O)N1)C(N)=O [technetium-99m labelled]  tissue uptake (C57 mouse, female, B16/F1 melanoma, heart; intravenous, 2 h, with: NDP-MSH 10 µg co-injected): 0.42 ± 0.26 %ID/g
COc1ccc(S(=O)(=O)Nc2nc(-c3cccc([N+](=O)[O-])c3)c(CN3CCCCC3)s2)cc1OC  tissue concentration (wild-type mouse, liver; oral, 300 mg/kg, 5 h): 5 µM
COC(=O)C[C@](O)(CCCC(C)(C)O)C(=O)O[C@@H]1C(OC)=C[C@]23CCCN2CCc2cc4c(cc2[C@H]13)OCO4  tissue concentration (CD1 mouse, kidney; oral, 1 mg/kg, 24 h, below quantification limit 1.00 ng/mL): not detected

Excerpt of the above:
CCCC[C@@H]1NC(=O)[C@@H](NC(=O)[C@H](CCC(=O)O)NC(=O)CNC(=O)CN2CCN(CC(=O)O)CCN(CC(=O)O)CCN(CC(=O)O)CC2)CCCCNC(=O)C[C@@H](C(N)=O)NC(=O)[C@H](C(C)C)NC(=O)[C@@H]2CCCN2C(=O)[C@H](CCCNC(=N)N)NC(=O)CNC(=O)[C@H](Cc2c[nH]c3ccccc23)NC(=O)[C@H](CCCNC(=N)N)NC(=O)[C@@H](Cc2ccccc2)NC(=O)[C@H](Cc2c[nH]cn2)NC(=O)[C@H](CCC(=O)O)NC1=O [indium-111 labelled]  tissue uptake ratio (C57 mouse, B16/F10 lung metastasis; intravenous, 0.037 MBq, 24 h; relative to: lung over kidney): 0.02
